Assay results of several laboratories.
A part holds a random share of what one study measured. Positions count from the first letter of the parent shown.

Block 1
Target: Fragile X messenger ribonucleoprotein 1, C-terminal low-complexity region (Fmr1, Mus musculus, UniProt P35922)
Method: RNA Bind-n-Seq
Molecule type: RNA
Medium: in vitro
Tested at: 200 nM
Notes: whole 134-nt RNA, ends assumed
With: 150 mM KCl
Baseline: input library
Direction: higher = stronger binding
`GGGAGUUCUACAGUCCGACGAUCUCCUGUGCUACACAUCGUAUGUACCGAAUCGGGUUUUUGGGUUUUUGGGAAAAAAAGGGAAAGUAUUAUGUUACGCCGUUCGGAUCUGCAUGGAAUUCUCGGGUGUCAAGG` gave a log2 enrichment of -0.113.
The log2 enrichment of `GGGAGUUCUACAGUCCGACGAUCCACAGACAACACGCACCCACACAGACACAGAGGGAAGGGGUUGGGAUGGGGACAGGGUGCACAGCAGGGCGGGGUAAAACCCCAGCCCCUUGGAAUUCUCGGGUGUCAAGG` is reported as 1.42.
`GGGAGUUCUACAGUCCGACGAUCUCAAGUCCUGUGCUACACAUCGUAUGUACCGAAUCGGGGCCGGGCCGGGGCCGGGAAAGUAUUAUGUUACGCCGUUCGGAUCUGCACUUCUGGAAUUCUCGGGUGUCAAGG` has a log2 enrichment of 0.074.
For `GGGAGUUCUACAGUCCGACGAUCACCAUGCAGGUGGGCAUCUUUGGGAAGUGGGGCAAGGGGGGGAAAGGGAGGGGGGUAACACUUUGGGAACAGGUGGUCCCAGGUCGUUUCUGGAAUUCUCGGGUGUCAAGG`, the log2 enrichment was 0.574.

Block 2
Target: Histone acetyltransferase KAT6A, both winged helices, GST fusion (KAT6A, Homo sapiens, UniProt Q92794, residues 1-181)
Method: protein binding microarray
Molecule type: double-stranded DNA, one strand shown
Medium: in vitro
Tested at: not given
Notes: 8-mer, flanks averaged, mean of 2 arrays, mostly near background
Baseline: not given
Direction: higher = stronger binding
Target sequence (chain): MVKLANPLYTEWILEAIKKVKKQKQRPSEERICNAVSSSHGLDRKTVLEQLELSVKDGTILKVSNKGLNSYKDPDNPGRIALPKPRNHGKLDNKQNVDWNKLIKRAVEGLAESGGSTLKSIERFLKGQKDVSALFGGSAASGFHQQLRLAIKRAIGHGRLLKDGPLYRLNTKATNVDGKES
With `ACTCTTCG` the E-score was -9.5e-05.
With `AGGTATTG` the E-score was -0.0749.
The E-score of `CTGATTTC` is reported as -0.173.
With `AACGTATC` the E-score was -0.105.
For `AATAATTG`, the E-score was 0.0119.
`ACTAATCA` has an E-score of -0.00944.
The E-score of `CAAGGAGC` is reported as -0.0593.

Block 3
Target: CCNB2, cyclin fold, Cln2 fusion (human)
Method: yeast growth competition, sequencing
Medium: yeast
Notes: weak parent motif
Baseline: not given
Direction: higher = stronger binding
Starting sequence: DBF4B docking peptide (human); LGYLYLLLTQSLW; partner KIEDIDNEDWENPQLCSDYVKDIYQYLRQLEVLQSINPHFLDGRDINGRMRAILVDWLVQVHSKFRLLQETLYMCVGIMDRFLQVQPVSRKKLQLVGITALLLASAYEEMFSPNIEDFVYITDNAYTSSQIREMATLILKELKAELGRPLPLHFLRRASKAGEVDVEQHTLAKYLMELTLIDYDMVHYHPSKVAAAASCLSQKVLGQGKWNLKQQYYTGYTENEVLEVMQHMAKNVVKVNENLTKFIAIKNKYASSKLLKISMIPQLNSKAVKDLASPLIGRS
`L4A`: “normalised enrichment score” 0.22.
`L12A`: “normalised enrichment score” 0.0299.
`W13A`: “normalised enrichment score” 0.143.
`L1A` — result for “normalised enrichment score”: 0.271.

Other studies, line by line
For `PhoQ, residues 284 288 289 292 302 303 SIHMAM`, the fold induction was 10.4 (PhoP, residues 12 14 15 18 19 GQAIL (Escherichia coli, UniProt P23836); Sort-seq, refers to: YFP reporter; E. coli; PhoQ-PhoP variant library, with: 10 µM Mg2+; baseline: high Mg2+ state, higher = stronger signaling).
